Assay results from different studies.
Numbered parts are unrelated; each lists some results of a single study. Values joined by “and” are separate records of one study, mostly repeats; a detail may differ. Positions count from the first letter of the parent shown.

Set 1 — observed: phage display binding; method: phage display panning NGS; form: peptide; reference: OGT-panned over input library
Target: UDP-N-acetylglucosamine--peptide N-acetylglucosaminyltransferase 110 kDa subunit (OGT, Homo sapiens, UniProt O15294)
UniProt O15294, sequence (whole entry, looked up): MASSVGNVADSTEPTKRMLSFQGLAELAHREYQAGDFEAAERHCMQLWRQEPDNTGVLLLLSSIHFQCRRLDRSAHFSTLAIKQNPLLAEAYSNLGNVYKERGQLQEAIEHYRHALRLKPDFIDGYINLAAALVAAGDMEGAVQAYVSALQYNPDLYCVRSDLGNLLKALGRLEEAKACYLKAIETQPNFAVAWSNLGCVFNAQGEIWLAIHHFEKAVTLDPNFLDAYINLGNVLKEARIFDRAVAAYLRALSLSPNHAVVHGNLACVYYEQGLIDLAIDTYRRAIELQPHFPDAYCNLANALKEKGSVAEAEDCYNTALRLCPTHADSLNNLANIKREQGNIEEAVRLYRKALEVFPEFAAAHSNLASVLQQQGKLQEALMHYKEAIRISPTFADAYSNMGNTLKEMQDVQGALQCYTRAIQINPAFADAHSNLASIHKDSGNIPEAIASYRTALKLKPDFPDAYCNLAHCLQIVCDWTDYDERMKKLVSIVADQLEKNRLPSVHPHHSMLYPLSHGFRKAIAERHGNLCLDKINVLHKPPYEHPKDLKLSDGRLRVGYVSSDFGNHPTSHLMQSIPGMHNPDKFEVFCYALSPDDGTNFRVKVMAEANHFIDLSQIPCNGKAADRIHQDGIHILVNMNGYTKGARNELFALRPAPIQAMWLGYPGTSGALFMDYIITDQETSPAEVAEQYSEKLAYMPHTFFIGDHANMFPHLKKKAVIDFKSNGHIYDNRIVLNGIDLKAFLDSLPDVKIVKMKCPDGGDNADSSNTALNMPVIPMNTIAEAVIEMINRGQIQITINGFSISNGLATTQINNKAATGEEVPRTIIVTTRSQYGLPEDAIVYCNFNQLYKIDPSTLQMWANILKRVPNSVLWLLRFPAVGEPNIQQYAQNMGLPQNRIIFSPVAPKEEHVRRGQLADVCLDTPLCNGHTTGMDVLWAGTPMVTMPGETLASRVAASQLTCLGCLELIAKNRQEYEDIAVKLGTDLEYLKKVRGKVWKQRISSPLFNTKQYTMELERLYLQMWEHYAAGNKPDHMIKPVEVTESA
Molecule	log2 fold enrichment
QIQTMLHQHSVHHTH	2.54
HFKWYGWSEMDQHTH	4.28
FVHDQHKQHYHIVAH	6.17
KQVAVSVPPKYQIYV	2.51
EPRHLYHIHQDHRQT	2.7
QYLHPHHHFAGMTG	2.27
QELFSHRMRFEQHHH	6.11
VEQSSPFAPQYQIQM	4.34

Set 2 — target: tungstate, free oxyanion; method: microfluidic competitive inhibition; medium: in vitro, cell-free expressed; concentration: not given; reading: lower = stronger binding
Setting: derived from inhibition constants, unchanged parent 2230 nM
Starting sequence: PafA, mature enzyme, eGFP fusion (Elizabethkingia meningoseptica, UniProt Q9KJX5); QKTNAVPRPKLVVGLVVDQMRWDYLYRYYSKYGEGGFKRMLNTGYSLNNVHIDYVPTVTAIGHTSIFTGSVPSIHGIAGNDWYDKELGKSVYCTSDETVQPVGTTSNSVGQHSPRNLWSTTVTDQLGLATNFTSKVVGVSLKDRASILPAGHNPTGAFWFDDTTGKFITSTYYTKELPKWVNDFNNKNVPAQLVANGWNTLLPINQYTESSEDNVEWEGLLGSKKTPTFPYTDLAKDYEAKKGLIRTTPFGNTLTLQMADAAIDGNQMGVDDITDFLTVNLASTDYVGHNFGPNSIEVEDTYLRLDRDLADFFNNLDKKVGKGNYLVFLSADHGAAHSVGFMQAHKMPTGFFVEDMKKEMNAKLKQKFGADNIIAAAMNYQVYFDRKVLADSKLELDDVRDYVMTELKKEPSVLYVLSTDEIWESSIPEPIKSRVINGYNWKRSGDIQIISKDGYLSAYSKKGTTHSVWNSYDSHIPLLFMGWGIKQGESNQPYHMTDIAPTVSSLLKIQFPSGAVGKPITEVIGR
Substitution	oxyanion analog dissociation constant
Y24G	3510 nM
F351G	2270 nM
L316G	1290 nM
I263G	1410 nM
V13A	2120 nM
L87G	1640 nM
V279A	2000 nM
V353A	2610 nM

Set 3 — target: CCNB3, cyclin fold, Cln2 fusion (human); method: yeast growth competition, sequencing; medium: yeast; setting: weak parent motif; reference: not given; reading: higher = stronger binding; starting sequence: viral docking peptide; KKVKRRLFETREL
Substitution	normalised enrichment score
R5A	0.165
R6A	0.408
R5K F8L	0.114
F8A	-0.124

Single results of other studies
SMILES	system	conditions	endpoint	result
CN(N=O)C(=O)N[C@@H]1[C@@H](O)[C@H](O)[C@@H](CO)O[C@@H]1O	mice, STZ diabetic neuropathy	dose not given, 7 days after STZ	body weight	39 g and 30.4 g and 38 g and 33 g

Excerpt of the above (set 2):
Substitution	oxyanion analog dissociation constant
L316G	1290 nM
V13A	2120 nM
I263G	1410 nM
